# Literature values, collected from citations in different studies.
# Numbers after ± are the reported error.
Compound,assay,system,conditions,how to read,endpoint,result
Nc1nc(NC2CC2)c2ncn([C@H]3C=C[C@@H](CO)C3)c2n1,,healthy human volunteers,"oral, 600 mg single dose, fasted, with: dolutegravir 50 mg, lamivudine 300 mg",,AUC(0-t),14300 ng·h/mL
COc1ccc(-n2nc(C(N)=O)c3c2C(=O)N(c2ccc(N4CCCCC4=O)cc2)CC3)cc1,,human,"concentration not given, with: diltiazem",relative to: compound alone,exposure increase,~40%
C#Cc1cccc(Nc2ncnc3cc(OCCOC)c(OCCOC)cc23)c1,,plasma,concentration not given,,Cmax,13800 nM
CO[C@H]1C(=O)[C@]2(C)[C@@H](OC)C[C@H]3OC[C@@]3(OC(C)=O)[C@H]2[C@H](OC(=O)c2ccccc2)[C@]2(O)C[C@H](OC(=O)[C@H](O)[C@@H](NC(=O)OC(C)(C)C)c3ccccc3)C(C)=C1C2(C)C,,"several species including human, plasma",dose not given,,parent share of radioactivity,≥ 65%
CN(C)CCCOc1ccc(C(=O)N2c3ccccc3Oc3ccccc32)cc1,,rat plasma,,,half-life,0.232 h
C[C@]12CC[C@H](O)CC1=CC[C@@H]1[C@@H]2CC[C@]2(C)C(c3cccnc3)=CC[C@@H]12,,"human, plasma",,,unbound fraction,< 1%
Cc1cc(C)c2c(c1)[C@@H](N(Cc1cc(C(F)(F)F)cc(C(F)(F)F)c1)c1nnn(C)n1)CCCN2C[C@H]1CC[C@H](C(=O)O)CC1,,healthy volunteers,"up to 600 mg, multiple dose",,tolerability,not toxic
Cc1cnc(NC(=O)C2=C(O)c3ccccc3S(=O)(=O)N2C)s1,"hydroxylation, substrate",human liver microsomes,Michaelis-Menten phase,,Km,15 µM
CC[C@H](C)CCCCC(=O)N[C@@H](CCN)C(=O)N[C@H](C(=O)N[C@@H](CCN)C(=O)N[C@H]1CCNC(=O)[C@H]([C@@H](C)O)NC(=O)[C@H](CCN)NC(=O)[C@H](CCN)NC(=O)[C@H](CC(C)C)NC(=O)[C@@H](Cc2ccccc2)NC(=O)[C@H](CCN)NC1=O)[C@@H](C)O,population PK model,"patients, renal insufficiency",intravenous,,total clearance,1.58 L/h
COc1cccc(CCc2ccccc2OCC(CN(C)C)OC(=O)CCC(=O)O)c1 (racemic),,human,"oral, 400 mg single dose as hydrochloride, geometric mean",,Tmax,1.37 h
CO[C@H]1C[C@@H]2CC[C@@H](C)[C@@](O)(O2)C(=O)C(=O)N2CCCC[C@H]2C(=O)O[C@H]([C@H](C)C[C@@H]2CC[C@@H](O)[C@H](OC)C2)CC(=O)[C@H](C)/C=C(\C)[C@@H](O)[C@@H](OC)C(=O)[C@H](C)C[C@H](C)/C=C/C=C/C=C/1C,population PK model,paediatric neurofibromatosis patients,,,absorption rate constant,2.77 ± 1.33 h⁻¹
CC1(C)S[C@@H]2[C@H](NC(=O)[C@H](N)c3ccccc3)C(=O)N2[C@H]1C(=O)O,,plasma,concentration not given,,Cmax,8420 nM
CN1C(C(=O)Nc2ccccn2)=C(O)c2ccccc2S1(=O)=O,,water,hydrate form,,aqueous solubility,10 µg/mL
Cc1nc2cccc(OCC(C)(C)C(=O)NC(C)C)c2c(N)c1C(=O)[O-].[Na+],,"rat, male, plasma","oral gavage, 30 mg/kg, molecular weight corrected",relative to: parent drug,AUC(0-t),89.4%
COc1cccc(-c2c(C)n(Cc3c(F)cccc3C(F)(F)F)c(=O)n(C[C@H](NCCCC(=O)O)c3ccccc3)c2=O)c1F,,"human, Child-Pugh C hepatic impairment","150 mg single dose, mean observed",relative to: patients over healthy volunteers,Cmax ratio,6.2
C[C@@H]1O[C@@H](OC[C@H]2O[C@@H](Oc3c(-c4ccc(OCCO)c(OCCO)c4)oc4cc(OCCO)cc(O)c4c3=O)[C@H](O)[C@@H](O)[C@@H]2O)[C@H](O)[C@H](O)[C@H]1O,,plasma,concentration not given,,Cmax,4 nM
COc1cccc(-c2ccc(NC(=O)C3=C(C(=O)O)CCC3)c(F)c2)c1,,"human, clinical database",,,well-tolerated daily dose,< 70 mg
COc1cccc2c1C(=O)c1c(O)c3c(c(O)c1C2=O)C[C@@](O)(C(=O)CO)C[C@@H]3O[C@H]1C[C@H](N)[C@H](O)[C@H](C)O1,,plasma,concentration not given,,Cmax,200 nM
Nc1nc2c(nc(Br)n2[C@@H]2O[C@@H]3COP(=O)(O)O[C@H]3[C@H]2O)c(=O)[nH]1,,methanol/water,,,log Kw,1.17
CCCCC1=NC2(CCCC2)C(=O)N1Cc1ccc(-c2ccccc2S(=O)(=O)Nc2noc(C)c2C)c(COCC)c1,,healthy human volunteers,"dose not given, with: itraconazole",relative to: without itraconazole,AUCinf increase,174%
CC(C)NCC1CCc2cc(CO)c([N+](=O)[O-])cc2N1 (centres unmarked),,healthy human,"oral, 1000 mg",,half-life,1.85 ± 0.233 h
Cc1ccc(Nc2c(F)cccc2Cl)c(CC(=O)O)c1,,plasma,concentration not given,,Cmax,22500 nM
C[C@H](N[C@@H](CCc1ccccc1)C(=O)O)C(=O)N1CCC[C@H]1C(=O)O,,n-octanol/water,pH 7.4,,logD,-1
Cc1c(N(C)CS(=O)(=O)O)c(=O)n(-c2ccccc2)n1C,measured: CYP3A4,"human patients treated vs untreated, liver microsomes",dose not given,relative to: untreated patients,protein level and activity,increased
OC(Cn1cncn1)(Cn1cncn1)c1ccc(F)cc1F,,water,hydrate form,,aqueous solubility,3560 µg/mL
NCCN[C@H]1CC[C@H](CC(=O)N[C@H]2Cc3cccc(C(=O)O)c3OB2O)CC1,,"human, plasma","intravenous infusion, 500 mg over 2 h every 8 h, after 10 days, without cefepime",,AUC(0-8 h),89100 ng·h/mL
CCCCN1CCCCC1C(=O)Nc1c(C)cccc1C (centres unmarked),,plasma,concentration not given,,Cmax,700 nM
CC[C@H](C)[C@H](NC(=O)[C@H](CCCCN)NC(=O)[C@H](CCCCN)NC(=O)[C@@H](Cc1ccccc1)NC(=O)[C@H](CC(C)C)NC(=O)[C@H](CCCCN)NC(=O)[C@@H](N)CCCCN)C(=O)N[C@@H](CC(C)C)C(=O)N[C@@H](CCCCN)C(=O)N[C@@H](Cc1ccc(O)cc1)C(=O)N[C@@H](CC(C)C)C(N)=O,,horse erythrocytes 5 % v/v,150 µM,,hemolysis,2 ± 2%
CNC(=O)c1cc(Oc2ccc(NC(=O)Nc3ccc(Cl)c(C(F)(F)F)c3)cc2)ccn1,,patients,"dose not given, grade 3",,patients with thrombocytopenia,1%
O=c1c(O)c(-c2ccc(O)c(O)c2)oc2cc(O)ccc12,,"mouse, multiple organs","oral, diet, 0.05% in diet, 9 months",,histopathology,not toxic
CN(C)C(=O)c1cc2cnc(Nc3ccc(N4CCNCC4)cn3)nc2n1C1CCCC1,,"recurrent glioblastoma patients, MRI-enhancing tumour","oral, 900 mg/day, 5 days",,unbound concentration,2.15 nmol/g
C=C1CC[C@@H]2[C@](C)(CO)[C@H](O)CC[C@@]2(C)[C@@H]1C/C=C1/C(=O)OC[C@H]1O,,"rat, duodenum",no cyclodextrin,,effective permeability,127 ×10⁻⁶ cm/s
Cc1cc2nc3c(=O)[nH]c(=O)nc-3n(C[C@H](O)[C@H](O)[C@H](O)CO)c2cc1C,,plasma,concentration not given,,Cmax,3.9 nM
CC[C@H](C)[C@H](NC(=O)[C@H](C)NC(=O)CNC(=O)[C@@H](N)CCCCN)C(=O)N[C@H](C(=O)NCC(=O)N[C@@H](CC(C)C)C(=O)N[C@@H](CCSC)C(=O)N[C@H](C(=O)NCC(=O)NCC(=O)N[C@H](C(=O)N[C@H](C(=O)N[C@H](C(=O)N[C@@H](C)C(=O)O)[C@@H](C)CC)C(C)C)C(C)C)C(C)C)[C@@H](C)CC,filtration,sodium phosphate buffer,pH 7.4,,solubility,~1 µM
CN1CC[C@H](c2c(O)cc(O)c3c(=O)cc(-c4ccccc4Cl)oc23)[C@H](O)C1,,human,,,clearance,31.4 ± 5.4 L/h
Nc1cccc2c1C(=O)N(C1CCC(=O)NC1=O)C2=O (centres unmarked),,"human, plasma","dose not given, based on AUC(0-t)",,unchanged drug of total radioactivity,~70%
CON=C(N)c1ccc(-c2ccc(-c3ccc(C(N)=NOC)cc3)o2)cc1,substrate,human liver microsomes,0.5 mg/mL protein,,Km,2.1 µM
C[C@H]1O[C@@H](O[C@H]2[C@@H](O)C[C@H](O[C@H]3[C@@H](O)C[C@H](O[C@H]4CC[C@@]5(C)[C@H](CC[C@@H]6[C@@H]5C[C@@H](O)[C@]5(C)[C@@H](C7=CC(=O)OC7)CC[C@]65O)C4)O[C@@H]3C)O[C@@H]2C)C[C@H](O)[C@@H]1O,population PK,"human, TT genotype",dose not given,relative to: CC and CT carriers,clearance reduction,26.6%
O=C1c2cccc3c2[C@H](CCC3)CN1[C@@H]1CN2CCC1CC2,,"patients, plasma","oral, dose not given, netupitant-palonosetron combination, with: cyclophosphamide 500 to 1000 mg/m^2 IV",,CL/F,11.3 L/h
CS(=O)(=O)CCNCc1ccc(-c2ccc3ncnc(Nc4ccc(OCc5cccc(F)c5)c(Cl)c4)c3c2)o1,,"human, severe hepatic impairment","oral, 100 mg",relative to: healthy controls,AUC increase,~85%
CC(C)(C)NC(=O)[C@@H]1C[C@@H]2CCCC[C@@H]2CN1C[C@@H](O)[C@H](Cc1ccccc1)NC(=O)[C@H](CC(N)=O)NC(=O)c1ccc2ccccc2n1,,human HIV patients,"600 mg three times daily, steady state unboosted",,CL/F,989 L/h
CO[C@H]1C[C@@H]2CC[C@@H](C)[C@@](O)(O2)C(=O)C(=O)N2CCCC[C@H]2C(=O)O[C@H]([C@H](C)C[C@@H]2CC[C@@H](OC(=O)C(C)(CO)CO)[C@H](OC)C2)CC(=O)[C@H](C)/C=C(\C)[C@@H](O)[C@@H](OC)C(=O)[C@H](C)C[C@H](C)/C=C/C=C/C=C/1C,,human,"intravenous, 25 mg once weekly, day 7 or 28",,AUC(0-t),1580 ± 270 ng·h/mL
Cc1cc2c(s1)Nc1ccccc1N=C2N1CCN(C)CC1,,healthy male smokers,"dose not given, with: fluvoxamine",,increase in AUC(0-24),119%
O=C(NC1CCNCC1)c1n[nH]cc1NC(=O)c1c(Cl)cccc1Cl,,"patients, phase I and II",dose not given,,tolerability,not toxic
Cc1nc(-c2ccc(OCC(C)C)c(C#N)c2)sc1C(=O)O,,healthy subjects and patients,with: food,,absorption rate constant reduction,87%
Cc1c(C)c2c(c(C)c1O)CCC(C)(COc1ccc(CC3SC(=O)NC3=O)cc1)O2 (centres unmarked),rapid equilibrium dialysis,hepatocyte culture medium,,,unbound fraction,0.03 to 0.05
CC[C@H]1OC(=O)[C@H](C)[C@@H](O[C@H]2C[C@@](C)(OC)[C@@H](O)[C@H](C)O2)[C@H](C)[C@@H](O[C@@H]2O[C@H](C)C[C@H](N(C)C)[C@H]2O)[C@](C)(O)C[C@@H](C)CN(C)[C@H](C)[C@@H](O)[C@]1(C)O,,"juvenile Chinook salmon, whole body wet weight","concentration not given, field-collected",,maximum whole-body concentration,1.7 ng/g
Nc1ccn([C@@H]2CS[C@H](CO)O2)c(=O)n1,,Japanese HIV-infected patients,"oral, 300 mg single dose, fasted, with: abacavir 600 mg",,AUC(0-t),16300 ng·h/mL
Cc1ccccc1-c1cc(N2CCN(C)CC2)ncc1N(C)C(=O)C(C)(C)c1cc(C(F)(F)F)cc(C(F)(F)F)c1,,"patients, plasma","oral, dose not given, netupitant-palonosetron combination, with: cyclophosphamide 500 to 1000 mg/m^2 IV",,CL/F,19.7 L/h
O=C(O)CNC(=O)c1ccccc1[131I],,"normal rat, urine","10 min, with: co-injected 99mTc-1",,percent injected dose,53.2 ± 7.2 %ID
